Published values of several laboratories.
Each line is one published result; not all experiments were run side by side. “And” joins repeats or separate records; there may be more than shown. Numbers after ± are the reported error.
USP20 ZnF-UBD domain: Ubiquitin carboxyl-terminal hydrolase 20, ZnF-UBD domain (USP20, Homo sapiens, UniProt Q9Y2K6)
UniProt Q9Y2K6, sequence (whole entry, looked up): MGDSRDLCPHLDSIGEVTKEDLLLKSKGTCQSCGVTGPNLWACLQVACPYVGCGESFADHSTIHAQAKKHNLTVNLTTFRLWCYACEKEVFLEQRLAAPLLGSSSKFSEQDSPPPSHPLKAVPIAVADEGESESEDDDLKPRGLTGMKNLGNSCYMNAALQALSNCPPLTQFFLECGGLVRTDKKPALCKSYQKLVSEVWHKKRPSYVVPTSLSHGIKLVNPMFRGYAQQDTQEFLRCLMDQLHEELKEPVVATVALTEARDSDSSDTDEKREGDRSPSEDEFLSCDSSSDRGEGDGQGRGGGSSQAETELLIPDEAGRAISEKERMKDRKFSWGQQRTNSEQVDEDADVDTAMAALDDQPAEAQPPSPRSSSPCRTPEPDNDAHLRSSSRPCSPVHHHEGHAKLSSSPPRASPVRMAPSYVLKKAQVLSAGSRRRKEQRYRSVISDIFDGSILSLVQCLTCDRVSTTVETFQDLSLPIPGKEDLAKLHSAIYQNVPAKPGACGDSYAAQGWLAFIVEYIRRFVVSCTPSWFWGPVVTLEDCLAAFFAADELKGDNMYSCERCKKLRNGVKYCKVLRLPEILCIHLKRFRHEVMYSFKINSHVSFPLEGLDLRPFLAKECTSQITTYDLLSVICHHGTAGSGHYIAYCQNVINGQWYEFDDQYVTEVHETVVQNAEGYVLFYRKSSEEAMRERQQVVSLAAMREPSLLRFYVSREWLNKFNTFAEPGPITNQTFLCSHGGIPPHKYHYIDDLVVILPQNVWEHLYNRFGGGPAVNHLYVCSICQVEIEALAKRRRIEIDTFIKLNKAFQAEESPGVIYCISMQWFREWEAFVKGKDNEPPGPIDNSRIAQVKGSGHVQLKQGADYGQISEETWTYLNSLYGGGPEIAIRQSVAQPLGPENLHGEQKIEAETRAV
PHO85: Negative regulator of the PHO system (PHO85, Candida albicans, UniProt Q9HGY5)
UniProt Q9HGY5, sequence (whole entry, looked up): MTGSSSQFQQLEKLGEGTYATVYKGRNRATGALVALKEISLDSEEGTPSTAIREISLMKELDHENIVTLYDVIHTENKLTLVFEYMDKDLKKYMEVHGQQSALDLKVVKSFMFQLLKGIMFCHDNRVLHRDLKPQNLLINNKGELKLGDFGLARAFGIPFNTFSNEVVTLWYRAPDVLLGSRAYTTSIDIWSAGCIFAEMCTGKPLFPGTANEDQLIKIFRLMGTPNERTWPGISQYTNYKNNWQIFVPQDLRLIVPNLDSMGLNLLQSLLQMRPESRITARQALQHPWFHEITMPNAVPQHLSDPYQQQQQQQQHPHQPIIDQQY
PREP: Prolyl endopeptidase (PREP, Homo sapiens, UniProt P48147)
UniProt P48147, sequence (whole entry, looked up): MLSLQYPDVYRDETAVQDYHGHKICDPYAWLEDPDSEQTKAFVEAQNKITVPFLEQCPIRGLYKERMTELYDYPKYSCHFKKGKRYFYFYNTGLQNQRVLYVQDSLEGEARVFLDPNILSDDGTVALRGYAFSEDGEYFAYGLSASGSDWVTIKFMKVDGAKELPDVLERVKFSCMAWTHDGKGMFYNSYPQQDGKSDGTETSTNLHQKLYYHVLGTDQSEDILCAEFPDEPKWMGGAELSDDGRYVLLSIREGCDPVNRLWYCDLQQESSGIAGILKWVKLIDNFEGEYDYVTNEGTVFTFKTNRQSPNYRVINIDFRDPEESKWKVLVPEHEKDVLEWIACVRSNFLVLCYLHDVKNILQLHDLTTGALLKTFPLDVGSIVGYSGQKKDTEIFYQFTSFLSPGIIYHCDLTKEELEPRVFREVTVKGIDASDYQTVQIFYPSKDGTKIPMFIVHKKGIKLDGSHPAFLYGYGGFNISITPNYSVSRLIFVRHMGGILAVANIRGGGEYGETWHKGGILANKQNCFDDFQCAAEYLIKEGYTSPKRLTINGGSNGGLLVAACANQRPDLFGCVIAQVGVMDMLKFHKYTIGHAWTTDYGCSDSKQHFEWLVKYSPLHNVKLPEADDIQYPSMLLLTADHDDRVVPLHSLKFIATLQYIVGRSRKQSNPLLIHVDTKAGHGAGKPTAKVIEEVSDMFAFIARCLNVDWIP
TOP2A: DNA topoisomerase 2-alpha (TOP2A, Homo sapiens, UniProt P11388)
UniProt P11388, sequence (whole entry, looked up): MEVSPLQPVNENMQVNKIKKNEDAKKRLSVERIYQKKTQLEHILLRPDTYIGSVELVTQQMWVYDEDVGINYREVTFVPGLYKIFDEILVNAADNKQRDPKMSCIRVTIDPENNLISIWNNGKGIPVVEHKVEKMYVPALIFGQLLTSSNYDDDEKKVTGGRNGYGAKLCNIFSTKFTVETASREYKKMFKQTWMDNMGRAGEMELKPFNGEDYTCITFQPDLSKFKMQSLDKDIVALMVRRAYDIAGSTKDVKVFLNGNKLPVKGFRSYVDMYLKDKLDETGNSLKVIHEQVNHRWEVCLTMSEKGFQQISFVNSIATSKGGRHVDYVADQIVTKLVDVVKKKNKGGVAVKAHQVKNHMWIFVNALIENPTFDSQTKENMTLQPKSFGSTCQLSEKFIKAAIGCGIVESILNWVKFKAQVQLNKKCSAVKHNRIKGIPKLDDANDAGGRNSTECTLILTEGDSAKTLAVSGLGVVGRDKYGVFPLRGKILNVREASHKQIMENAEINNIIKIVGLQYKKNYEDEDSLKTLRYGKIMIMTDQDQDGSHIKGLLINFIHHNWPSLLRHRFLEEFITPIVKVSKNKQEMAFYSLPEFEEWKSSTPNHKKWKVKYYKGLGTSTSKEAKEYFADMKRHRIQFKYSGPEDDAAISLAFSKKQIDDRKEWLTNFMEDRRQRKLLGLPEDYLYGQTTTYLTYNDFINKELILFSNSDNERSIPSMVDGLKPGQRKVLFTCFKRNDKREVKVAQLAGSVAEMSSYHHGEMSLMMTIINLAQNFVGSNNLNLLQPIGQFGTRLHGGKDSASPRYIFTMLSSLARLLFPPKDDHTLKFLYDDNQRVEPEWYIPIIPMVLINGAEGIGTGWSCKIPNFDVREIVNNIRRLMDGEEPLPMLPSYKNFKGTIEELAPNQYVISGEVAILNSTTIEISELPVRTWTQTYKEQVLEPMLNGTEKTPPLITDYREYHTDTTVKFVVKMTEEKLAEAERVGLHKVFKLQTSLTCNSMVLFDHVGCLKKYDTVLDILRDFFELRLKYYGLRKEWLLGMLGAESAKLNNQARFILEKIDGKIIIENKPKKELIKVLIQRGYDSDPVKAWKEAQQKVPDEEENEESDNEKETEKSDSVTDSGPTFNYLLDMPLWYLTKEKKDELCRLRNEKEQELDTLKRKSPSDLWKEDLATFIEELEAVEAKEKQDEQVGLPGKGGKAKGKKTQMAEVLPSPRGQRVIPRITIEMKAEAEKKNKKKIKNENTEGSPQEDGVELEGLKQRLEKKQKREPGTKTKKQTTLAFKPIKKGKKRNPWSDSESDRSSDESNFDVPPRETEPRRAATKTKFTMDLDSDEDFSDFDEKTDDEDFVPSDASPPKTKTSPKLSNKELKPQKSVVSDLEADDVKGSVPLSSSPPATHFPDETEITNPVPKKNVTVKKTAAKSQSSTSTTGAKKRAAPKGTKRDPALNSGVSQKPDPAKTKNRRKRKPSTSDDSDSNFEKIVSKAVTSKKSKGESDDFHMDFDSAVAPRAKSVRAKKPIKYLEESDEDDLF
GUK1: GUK1 (Homo sapiens, UniProt Q16774)
UniProt Q8TCS8, sequence (whole entry, looked up): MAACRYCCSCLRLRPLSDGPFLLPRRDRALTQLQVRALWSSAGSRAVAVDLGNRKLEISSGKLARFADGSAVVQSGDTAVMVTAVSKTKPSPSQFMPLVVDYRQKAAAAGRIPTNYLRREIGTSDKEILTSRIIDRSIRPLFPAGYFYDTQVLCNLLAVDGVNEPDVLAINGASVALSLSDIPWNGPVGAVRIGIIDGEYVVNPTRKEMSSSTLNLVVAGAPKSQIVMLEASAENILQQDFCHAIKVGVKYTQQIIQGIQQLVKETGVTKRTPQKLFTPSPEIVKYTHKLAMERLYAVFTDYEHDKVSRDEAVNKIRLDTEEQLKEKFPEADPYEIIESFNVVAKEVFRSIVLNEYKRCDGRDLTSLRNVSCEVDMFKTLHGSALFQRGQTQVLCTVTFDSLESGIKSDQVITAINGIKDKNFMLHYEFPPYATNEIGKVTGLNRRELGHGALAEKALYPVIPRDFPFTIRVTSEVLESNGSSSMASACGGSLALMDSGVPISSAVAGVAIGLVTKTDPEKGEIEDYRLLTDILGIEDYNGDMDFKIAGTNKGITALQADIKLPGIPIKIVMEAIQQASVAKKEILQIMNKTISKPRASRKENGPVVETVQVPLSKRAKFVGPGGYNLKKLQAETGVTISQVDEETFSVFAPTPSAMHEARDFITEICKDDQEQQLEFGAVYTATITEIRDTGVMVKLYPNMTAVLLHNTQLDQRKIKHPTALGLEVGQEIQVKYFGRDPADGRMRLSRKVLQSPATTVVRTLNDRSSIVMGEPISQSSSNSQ
UniProt Q16774, sequence (whole entry, looked up): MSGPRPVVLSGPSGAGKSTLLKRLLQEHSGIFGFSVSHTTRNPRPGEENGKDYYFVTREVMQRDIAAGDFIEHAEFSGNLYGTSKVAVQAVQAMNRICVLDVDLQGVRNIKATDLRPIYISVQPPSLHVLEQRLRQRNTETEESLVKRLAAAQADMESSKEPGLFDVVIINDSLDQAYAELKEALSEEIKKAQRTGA
UniProt P00441, sequence (whole entry, unmodified, looked up): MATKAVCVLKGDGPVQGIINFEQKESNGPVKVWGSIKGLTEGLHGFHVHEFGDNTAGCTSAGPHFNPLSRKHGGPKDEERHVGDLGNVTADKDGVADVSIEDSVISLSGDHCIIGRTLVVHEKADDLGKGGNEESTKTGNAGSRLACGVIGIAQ
UniProt P34995, sequence (whole entry, unmodified, looked up): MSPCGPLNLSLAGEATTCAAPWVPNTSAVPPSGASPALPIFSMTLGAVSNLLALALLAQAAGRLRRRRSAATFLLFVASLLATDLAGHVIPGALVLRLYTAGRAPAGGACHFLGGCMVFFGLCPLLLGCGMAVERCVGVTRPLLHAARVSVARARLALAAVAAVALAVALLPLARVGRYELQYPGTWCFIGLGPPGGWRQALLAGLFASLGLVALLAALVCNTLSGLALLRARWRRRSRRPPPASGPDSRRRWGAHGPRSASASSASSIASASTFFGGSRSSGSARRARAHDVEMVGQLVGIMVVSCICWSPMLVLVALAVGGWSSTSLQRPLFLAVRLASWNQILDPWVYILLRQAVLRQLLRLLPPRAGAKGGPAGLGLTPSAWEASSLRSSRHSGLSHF

The Kd of `COc1cc2oc(=O)cc(C)c2cc1CCC(=O)O` is reported as 465 µM (USP20 ZnF-UBD domain).
Under “log2 fold change”, `Oc1ccccc1-c1n[nH]cc1-c1ccnc2ccccc12` is recorded as 0.5 (PHO85; kinase binding, MIB/MS competition; Candida albicans lysate; 10 µM; baseline: DMSO, negative = stronger binding).
`CCCCC[C@H](O)/C=C/[C@H]1[C@H](O)CC(=O)[C@@H]1C/C=C\CCCC(=O)O` gave an Emax of 103 ± 11.1% (PTGER1 (Homo sapiens, UniProt P34995, V337A); IP1 accumulation, agonist; AD293; 1 h, EP1 V337A mutant).
`Cc1nn(CCc2ccccc2)c2ncc(C(=O)NCc3cccnc3)c(Cl)c12` — result for “protein adduct formation”: 100% (PREP; intact protein MS; 50 µM, 4 h, 37 °C).
`Nc1ncnc2c1ncn2[C@@H]1O[C@H](COP(=O)(O)OP(=O)(O)O)[C@@H](O)[C@H]1O` gave an association constant of 953 ± 113 M⁻¹ (Cell cycle histidine kinase CckA, CA domain (Caulobacter vibrioides, UniProt Q9X688); binding, ITC; added: without c-di-GMP).
With `CC(C)=CCC/C(C)=C/CC/C(C)=C/CC/C(C)=C/COP(=O)(O)OP(=O)(O)O` the Km was 6.74 µM (SpS; substrate, pyrophosphate release; added: MgCl2 2.5 mM).
`[O-][S+]1CCCCS1` (centres unmarked) gave a target engagement of 20% and 21.4% (SOD1 (Homo sapiens, UniProt P00441, G94A); intact protein LC-MS; SOD1 G93A transgenic mice, whole blood; intravenous, 10 mg/kg, 48 h).
For `CC(=C/C(=O)O)/C=C/C=C(\C)C1C=C2C(C)(C)CCCC2(C)O1` (centres unmarked), “Pearson correlation coefficient” read 0.71 (Rhodopsin (RHO, Homo sapiens, UniProt P08100, E181K); ER retention, immunostaining co-localization, measured: opsin with calnexin; COS-7 transfected E181K; 1.00 µM).
With `C=CC(=O)N1CCC(Oc2cc3c(Nc4ccc(Cl)c(Cl)c4F)ncnc3cc2OC)CC1` the Km was 5.99 µM (substrate, measured: metabolite M1 formation; rat liver microsomes).
The calcium influx of `Nc1ncnc2c1ncn2[C@@H]1O[C@H](COP(=O)(O)CP(=O)(O)OP(=O)(O)O)[C@@H](O)[C@H]1O` is reported as 0% (P2X purinoceptor 1 (P2RX1, Homo sapiens, UniProt P51575, E122A); calcium influx; 100 nM; baseline: ionomycin response).
Under “log2 fold change”, `N#Cc1ccc2c(-c3ccncc3)c(-c3ccc(F)cc3)nn2c1` is recorded as 0.465 (PHO85; kinase binding, competitor, MIB/MS competition, measured: PHO85; Candida albicans cell lysate; 10 µM; baseline: DMSO).
For `CCCCc1nc2c(o1)c(N)nc1ccccc12`, EC50 read “inactive” (TLR7 (Homo sapiens, UniProt Q9NYK1); reporter gene, agonist, NF-κB reporter; HEK-Blue TLR7).
With `COc1cc(C(=O)NS(=O)(=O)c2ccccc2C)ccc1Cc1cn(C)c2ccc(NC(=O)OC3CCCC3)cc12` the inhibition was 0.922% and 10.6% and 24.2% and 31.9% and 25.3% and 3.42% (Volume-regulated anion channel subunit LRRC8C, part LRRC8A IL1 chimera (LRRC8C, Homo sapiens, UniProt Q8TDW0, Y126F); ion current, inhibitor, whole-cell patch clamp; HCT LRRC8-/- cells; 0.1 µM, +100 mV).
The kcat of `C[C@H](N)C(=O)Nc1ccc2ccccc2c1` is reported as 15.4 s⁻¹ (rat neuron-specific aminopeptidase; substrate; MW 110 kDa).
`O=C(O)CCC(=O)N1CCc2ccccc21` has a Kd of 291 µM (USP20 ZnF-UBD domain).
The Km of `Nc1ncnc2c1ncn2[C@@H]1O[C@H](COP(=O)(O)OP(=O)(O)OP(=O)(O)O)[C@@H](O)[C@H]1O` is reported as 2100 ± 100 µM (Hexokinase-3 (HK3, Homo sapiens, UniProt P52790, E254A/R267A); substrate; mutant E254A/R267A, added: glucose 0.5 mM).
With `O=C(O)c1ccc(Nc2ncc3c(n2)-c2ccc(Cl)cc2C(c2c(F)cccc2F)=NC3)cc1` the remaining activity was 60% (human DRAK1(h); kinase activity; 1 µM).
For `Cc1cc(=O)oc2cc(OCCCCSC#N)ccc12`, the selectivity ratio was greater than 1840 (CA12 (Homo sapiens, UniProt O43570); stopped-flow CO2 hydration; baseline: Ki CA II over Ki CA XII).
For `Cc1cc(-c2ccnc3[nH]cc(F)c23)cc(F)c1[C@@]1(O)[C@H](C)CN(C(=O)CN)C[C@@H]1C`, the inhibition was 5.9% (STK38 (Homo sapiens, UniProt Q15208); ATP probe binding, KiNativ, measured: Lys1 site; HEK293T cell lysate; 0.1 µM).
For `O=c1nc(SCc2cc(F)cc(C(F)(F)F)c2)nc(SCc2ccc3sccc3c2)[nH]1`, the linear DNA was 4.06% (TOP2A; DNA cleavage; 15.6 µM, replicate 2).
For `CC(C)C[C@H](NC(=O)C[C@H](O)[C@H](CC(C)C)NC(=O)[C@H](Cc1c[nH]cn1)NC(=O)CNC(=O)[C@@H](NC(=O)[C@H](C)NC(=O)[C@H](Cc1c[nH]c2ccccc12)NC(=O)[C@H](CCC(N)=O)NC(=O)[C@@H](Cc1ccccc1)NC(=O)COCCOCCNC(=O)CCC(C(=O)O)N1CCN(CC(=O)O)CCN(CC(=O)O)CCN(CC(=O)O)CC1)C(C)C)C(N)=O` (some centres unmarked) [lutetium-177 labelled], the tissue uptake was 0.3 ± 0.2 %ID/g (BALB/c nu/nu mice, salivary glands; 500 pmol, 1 h, added: PA 300 µg).
Under “thermal stability ratio”, `O=C(COP(=O)(O)O)[C@@H](O)[C@H](O)[C@H](O)COP(=O)(O)O` is recorded as 0.37 and 0.667 and 0.65 (PNPT1 (Homo sapiens, UniProt Q8TCS8); thermal proteome profiling; HepG2 cell lysate; concentration not given, 57 over 37 °C; baseline: compound over control).
`Cc1cc(NC2=CC(=O)N(C3CCC(=O)NC3=O)C2=O)cc(C(C)(C)NCCc2ccc(C(F)(F)F)c(Cl)c2)c1` (centres unmarked) gave a Dmax of 46% (ZBTB11/CRBN (Homo sapiens, UniProt O95625+Q96SW2); protein degradation, degrader, HiBiT luminescence; MOLT-4).
`O=c1nc(SCc2cc(F)cc(C(F)(F)F)c2)nc(SCc2ccc3nc(Cl)ccc3c2)[nH]1`: “mean relaxed DNA” 99.3% (TOP2A; DNA relaxation; 15.6 µM).
`Cn1cc(-c2ccc(-c3cncc(Cl)c3N3CCC4(CCNC4=O)CC3)cc2)cn1` — result for “log2 fold change”: -2.22 (COLO 205; gene expression, microarray, measured: HIST1H4H mRNA; concentration not given, 2 h; baseline: untreated cells).
The selectivity ratio of `CC(C)c1cccc2c(-c3ccc(Cl)cc3)cc(-c3ccc(-c4ccc(C(=O)O)cc4)[nH]3)nc12` is reported as 48 fold (RARG (Homo sapiens, UniProt P13631); reporter gene, antagonist; baseline: IC50 RARα over IC50 RARG).
The inhibition of `CC[C@@H]1[C@H](F)C(=O)N[C@@H]1COc1nccc2cc(C(N)=O)c(OC)cc12` is reported as 3.2% (MAP4K5 (Homo sapiens, UniProt Q9Y4K4); ATP-site probe binding, ActivX profiling, measured: KHS1; THP-1 cell lysate; 0.2 mM, Lys1 site).
`O=S(=O)(O)O` has a reaction velocity of 0.146 µM/s and 0.125 µM/s and 0.122 µM/s (GUK1; enzyme activity, NADH-coupled; 1 mM, added: ATP 1000 µM).
`Cc1cc2nc3c(=O)[nH]c(=O)nc-3n(C[C@H](O)[C@H](O)[C@H](O)COP(=O)(O)O)c2cc1C` gave a koff of 0.211 s⁻¹ (NADH-dependent FMN reductase SfnF (sfnF, Pseudomonas fluorescens, UniProt Q3K9A2); surface plasmon resonance).
With `C=CC(=O)N1CCC(COCC(=O)N2CCN(c3nc(-c4cnc(N)nc4C(F)F)nc(N4CCOC[C@@H]4C)n3)CC2)CC1` the remaining binding was 85% (MAP4K4 (Homo sapiens, UniProt O95819); KINOMEscan; 1 µM).
`O=C(CCCc1ccccc1)C(=O)NCCc1ccc(Oc2ccc(C(F)(F)F)cn2)cc1`: “probe-enriched protein abundance” 252000 a.u. (PREP; inhibitor, FP-biotin chemoproteomics, measured: PPCE; HepG2; concentration not given; baseline: DMSO, lower = stronger inhibition).
The tissue uptake of `N=C(N)NCCC[C@@H](NC(=O)CCOCCOCCNC(=O)[C@H](CCCCNC(=O)CC[C@H](NC(=O)c1ccc(NCc2cnc3nc(N)[nH]c(=O)c3n2)cc1)C(=O)O)NC(=O)CO/N=C/[C@H](F)[C@@H](O)[C@H](O)[C@H](O)CO)C(=O)NCC(=O)N[C@H](CC(=O)O)C(N)=O` [fluorine-18 labelled] is reported as 3.15 ± 0.72 %ID/g (female nude mouse, kidney; intravenous, 1 µg, 0.75 h).
For `[H]/N=C(/N)NCC(=O)O`, “normalised MST signal” read -0.0394 (SLC6A6 (Homo sapiens, UniProt P31641, L306A); binding, microscale thermophoresis; 1 mM, room temperature, added: 50 nM labelled protein; higher = more binding).
For `Cc1cc(Nc2ccc(S(F)(F)(F)(F)F)cc2)n2nc(C(C)(F)F)nc2n1`, “patients with QTcF increase” read 0% (Plasmodium vivax; 12-lead ECG; malaria patients; oral, 800 mg, increase above 60 ms).
For `CC(=O)N[C@H](C(=O)N1C[C@H](O)C[C@H]1C(=O)NCc1ccc(-c2scnc2C)cc1)C(C)(C)SCCCCCCNC(=O)C[C@@H]1N=C(c2ccc(Cl)cc2)c2c(sc(C)c2C)-n2c(C)nnc21`, the ΔG was -10.18 ± 0.05 kcal/mol (Bromodomain-containing protein 3, BD1 (BRD3, Homo sapiens, UniProt Q15059); binding, ITC; 25 °C, compound in cell, protein in syringe).
For `Nc1nc2c(ncn2[C@@H]2O[C@H](COP(=O)(O)O)[C@@H](O)[C@H]2O)c(=O)[nH]1`, the reaction velocity was 0.12 µM/s and 0.126 µM/s (GUK1; enzyme activity, NADH-coupled; 62.5 µM, added: KCl 50 mM).
`CC(=O)Oc1ccc([N+](=O)[O-])cc1` has a kcat of 134 ± 10.4 s⁻¹ (Methylesterase 9 (MES9, Arabidopsis thaliana, UniProt O23171); substrate, p-nitrophenyl ester).
`CC(C)OCCn1c(=S)[nH]c(=O)c2[nH]ccc21` has an H2O2 concentration of 0.244 µM (Myeloperoxidase (MPO, Homo sapiens, UniProt P05164); H2O2 consumption, inhibitor, H2O2 electrode; 0.68 µM, 0.2 s).
